Published values gathered from unrelated publications.
Target: Tyrosine-protein kinase Srms (SRMS, Homo sapiens, UniProt Q9H3Y6)
Sequence of UniProt Q9H3Y6 (whole entry, looked up): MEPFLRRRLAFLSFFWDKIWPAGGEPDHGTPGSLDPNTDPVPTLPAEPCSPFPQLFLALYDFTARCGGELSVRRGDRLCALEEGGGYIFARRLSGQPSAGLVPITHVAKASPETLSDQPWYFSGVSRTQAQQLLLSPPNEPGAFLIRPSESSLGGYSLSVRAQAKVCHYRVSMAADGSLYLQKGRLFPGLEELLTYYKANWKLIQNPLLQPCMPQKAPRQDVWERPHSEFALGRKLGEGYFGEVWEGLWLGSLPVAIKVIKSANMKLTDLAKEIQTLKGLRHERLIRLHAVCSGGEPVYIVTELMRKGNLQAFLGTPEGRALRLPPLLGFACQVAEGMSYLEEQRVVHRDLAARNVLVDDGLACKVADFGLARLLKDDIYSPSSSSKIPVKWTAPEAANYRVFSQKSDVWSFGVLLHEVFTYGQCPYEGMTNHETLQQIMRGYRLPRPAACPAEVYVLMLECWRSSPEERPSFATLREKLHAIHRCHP

Structure (SMILES)	assay	test system	conditions	how to read	quantity	value
C=CC(=O)Nc1cccc(-c2cnc3[nH]cc(C(=O)NC(C)(C)C)c3n2)c1	enzyme activity, inhibitor	–	0.1 µM	–	inhibition	-2%
CCn1cc(C(=O)O)c(=O)c2c(N)c(F)c(NC3CCCCC3)cc21	kinase activity	–	0.1 µM, added: ATP at Km	–	inhibition	7%
C=CC(=O)N1CCCC(n2c(=O)c3ncccc3n(Cc3ccc(Oc4ccccc4)cc3)c2=O)C1 (stereo not shown)	cell-free assay, competition with immobilised ligand	–	1 µM	–	remaining binding	80%
Cc1ccc(C(=O)Nc2ccc(CN3CCN(C)CC3)c(C(F)(F)F)c2)cc1C#Cc1cnc2cccnn12	target engagement, NanoBRET	human cells	–	–	upper asymptote	66.2
NC(=O)C[C@H]1CCc2sc3ncnc(O[C@H]4CC[C@H](N5CCOCC5)CC4)c3c21	enzyme activity, inhibitor	–	10 µM	–	inhibition	19%
CC(C)=CC1OC(C)(C)C2C=C3C(=O)C(Cl)=CC(O)C3C3C(O)C4OC4C(=O)C132 (stereo not shown)	cell-free assay, competition with immobilised ligand	–	10 µM	–	remaining binding	67%
C=CC(=O)N1CCc2ccc(-n3c(=O)ccc4cnc5ccc(-c6cnn(C)c6)cc5c43)cc21	KINOMEscan	–	1 µM	relative to: DMSO control	remaining binding	95%
Cc1cccc(O[C@H]2CCC[C@@H](C(C)CNCc3ccncc3)C2)c1 (relative stereo)	enzyme activity, inhibitor	–	10 µM	–	inhibition	-7%
Cc1cnc2nc1Nc1cccc(c1)COC/C=C/COCc1cc(ccc1OCCN1CCOCC1)N2	binding, competition with immobilised ligand	–	0.1 µM	–	remaining binding	76%
COc1cc(Nc2nc(C)cc(-c3cnn4nc(OC)ccc34)n2)cc(C(F)(F)F)c1	binding, competition with immobilised ligand	–	1 µM	–	remaining binding	66%
O=C(Cc1ccc(OCc2ccccc2)cc1)NC1(C(=O)O)CCN(C(=O)c2ccc(-c3cccc(Cl)c3)cc2)CC1	enzyme activity, inhibitor	–	10 µM	–	activity vs control	99%
CN1CCN(Cc2ccc(-c3ccc(CO[C@H]4CCC[C@@H]4NC(=O)c4cc(-c5cnn(C)c5)cnc4N)cc3)cc2)CC1	enzyme activity, inhibitor	–	0.1 µM	–	inhibition	11%
CNC1C[S+]2CC[S+]3CC[S+](C1)[Ru-4]321([N]=C=S)[n]2c3ccc(OC)cc3c3c4c(c5cc(F)c[n+]1c5c32)C(=O)NC4=O (stereo not shown)	KinomeScan	–	0.1 µM	relative to: untreated	remaining binding	94%
